Results pooled from the literature.
A part holds a random share of what one study measured. Positions count from the first letter of the parent shown.

Series 1 — target: CCNE2, cyclin fold, Cln2 fusion (human); technique: yeast growth competition, sequencing; matrix: yeast; setting: weak parent motif; baseline: not given; direction: higher = stronger binding
Starting sequence: USP37 docking peptide (human); PSAKRSLGFLPQP; partner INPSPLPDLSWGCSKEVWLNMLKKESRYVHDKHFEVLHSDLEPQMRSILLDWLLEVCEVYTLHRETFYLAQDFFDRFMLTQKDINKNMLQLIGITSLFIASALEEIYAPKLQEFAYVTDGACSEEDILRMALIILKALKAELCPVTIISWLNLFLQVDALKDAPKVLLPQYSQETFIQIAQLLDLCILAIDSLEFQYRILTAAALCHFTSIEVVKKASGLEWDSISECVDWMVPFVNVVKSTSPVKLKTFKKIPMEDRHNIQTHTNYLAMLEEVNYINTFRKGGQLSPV
| Substitution | normalised enrichment score |
| --- | --- |
| PAAKRSLGFLPQP [S2A] | 0.209 |
| PSAKRSLGFLPQA [P13A] | 0.255 |
| PSAKRSAGFLPQP [L7A] | 0.167 |
| PSAKRSLGFLPAP [Q12A] | 0.459 |
| PSAKRSLGFAPQP [L10A] | -0.147 |
| PSAARSLGFLPQP [K4A] | 0.427 |

Series 2 — technique: RNA Bind-n-Seq; form: RNA; matrix: in vitro; concentration: 20 nM; setting: 6-mer, flanks averaged, single round; with: 150 mM KCl; baseline: input library; direction: higher = stronger binding
Target: TAR DNA-binding protein 43, full length, His tag (TARDBP, Homo sapiens, UniProt Q13148, residues 1-414)
| Oligonucleotide | 6-mer enrichment (R) |
| --- | --- |
| GGUGGU | 2.95 |
| UCGGGC | 1.63 |
| GCCUAC | 0.698 |
| GAAAUC | 0.606 |
| CGAACA | 0.656 |
| UUACCG | 0.629 |
| CGGUGA | 1.3 |
| AGACCG | 0.871 |

Series 3 — technique: protein-binding microarray; form: hairpin DNA; matrix: in vitro; concentration: not given; baseline: not given; direction: higher = stronger binding; shared flanks, not repeated: GAGGCCG … CGGCCTCACACTC
Target: Cyclic AMP-responsive element-binding protein 1, full length (CREB1, Homo sapiens, UniProt P16220, residues 1-327)
Chain of UniProt P16220 (whole entry, looked up): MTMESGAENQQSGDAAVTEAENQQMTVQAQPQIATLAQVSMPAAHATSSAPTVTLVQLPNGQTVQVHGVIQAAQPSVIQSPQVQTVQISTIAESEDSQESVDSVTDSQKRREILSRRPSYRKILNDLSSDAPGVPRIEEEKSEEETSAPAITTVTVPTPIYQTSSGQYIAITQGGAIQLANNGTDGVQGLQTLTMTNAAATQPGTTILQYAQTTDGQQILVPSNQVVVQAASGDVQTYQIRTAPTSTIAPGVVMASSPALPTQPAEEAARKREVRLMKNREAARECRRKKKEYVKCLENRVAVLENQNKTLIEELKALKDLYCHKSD
Setting: whole hairpin DNA, median over replicate spots
| Oligonucleotide | median fluorescence |
| --- | --- |
| GCTGACGTCAGCCTCCTGGCTGACGTCAGC (5mC at 9) | 12900 a.u. |
| ACGACGTCCGGCCTCCTGGCCGGACGTCGT (5mC at 9 15 16 28 35) | 3090 a.u. |
| GATGACGCGAGCCTCCTGGCTCGCGTCATC (5mC at 15) | 10500 a.u. |
| GATGACGCGAGCCTCCTGGCTCGCGTCATC (5mC at 15 29) | 12200 a.u. |
| GATCGCGTCAGCCTCCTGGCTGACGCGATC (5mC at 33) | 4980 a.u. |
| ACGACGTGGTGCCTCCTGGCACCACGTCGT (5mC at 9 29 30 35) | 5470 a.u. |
| GCTGACGTGAGCCTCCTGGCTCACGTCAGC (5mC at 29) | 5090 a.u. |
| ACGACGGCGTGCCTCCTGGCACGCCGTCGT (5mC at 9 15 29 35) | 3210 a.u. |

Further values, each from its own experiment
| Molecule | target | assay | test system | scale | endpoint | result |
| --- | --- | --- | --- | --- | --- | --- |
| DEWECTRDD | HLA class I histocompatibility antigen, A alpha chain, allele A*80:01 (Homo sapiens, UniProt P04439) | peptide-MHC binding | peptide | direction not given | z-score of log IC50 | 0.38 |

Excerpt of the above (series 3):
| Oligonucleotide | median fluorescence |
| --- | --- |
| ACGACGGCGTGCCTCCTGGCACGCCGTCGT (5mC at 9 15 29 35) | 3210 a.u. |
| GATGACGCGAGCCTCCTGGCTCGCGTCATC (5mC at 15) | 10500 a.u. |
| GCTGACGTCAGCCTCCTGGCTGACGTCAGC (5mC at 9) | 12900 a.u. |
